# Measurements gathered from unrelated publications.
# Each numbered part is a random draw from the data of one study; scales do not carry over between parts.

# Series 1 — method: RNA Bind-n-Seq; form: RNA; medium: in vitro; concentration: 365 nM; relative to: no-protein control; direction: higher = stronger binding
# Target: RNA binding protein fox-1 homolog 2, RRM domain, GST-SBP tag (RBFOX2, Homo sapiens, UniProt O43251-10, residues 100-194)
# Setting: natural RNA segment, single round, ends assumed
# Constant ends, left off below: GGGAGUUCUACAGUCCGACGAUC … UGGAAUUCUCGGGUGCCAA
# Target sequence (chain): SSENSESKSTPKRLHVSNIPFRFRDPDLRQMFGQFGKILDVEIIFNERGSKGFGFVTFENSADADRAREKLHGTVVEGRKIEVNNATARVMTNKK
Oligonucleotide,RBNS enrichment (R)
UUUUUCUGUAAAUAAAUUUGCAUAUUUUGUAGGACUUUUAAUUGUAAUGAUAGAGAAAAAACAAGGAAAACUAUUUAAUGAAAGCACGAUAUUUAUCUUUGGUAAAUGAC,4.05
ACUAAUGGGCAGGUAAAGUCACAACUGUGGUUAUUUUGGUUUUGUUUUGGUUUUUGGUUUUUUUAUCCUUUUACUCCAAUACUCCCCCUGUCACUUUGCCUGGAGGUGCU,0.778
UUUACAGUGGCAAAAAUAAUGACAUGUAGCAAAGAUUUUCAAACAAAAUAUUUUUUCCUUUUGUAAAUUUCUUGUGUUGUGUGAUCUUGAUUGCGGCUUUAUCAUUCCUU,0.519
CUGCCUGUGGAACUCACUUCCUGGACUGAUGAGCACGGUCAGCCUCUGUCCCCACUGCAGGUGCUGCUUCUCCUCAGGUGUGGCCUACCUAGGCUCCUGGACCCACACCC,0.343
GUGGCUGGAUGUUCUCACGCCUGGCUCCGUUCUGCCUGUCUGGAGGCCUGGUCUGCUGGUCCACCUUCUUGACUGAAGAUUGGGUGUUUUCCAUAUUCUGGGAACAUUUU,0.297
CAUGCACAGUUAUUACAAAUCAGGAGCGUUUGGAAAGUUCACUGGGACGAGUGUGAUUUUUUGUUGAGUGCAUUACAUCUUCACAUGGGGGCGGGGAGGUCUUUUCCCUG,0.74
GUGUGUAUUCCUUUCCACUACAGAAGAACCAUCACUCUCAUGGGUGUCCCAGCCUCCAGCAAGGGCACAGCUCUGUCCCCUGCCUUUCUCUCCCUUUGUCCCCACUGCAU,1.06
AAUCAAGGACAAUGAAGCCUCACCAAUAUAUUUCUUGUGGUGCUGGGAUCAAACCCAGGACAGCAUUCAUCCUAGGCAAAUGCUGGACCAUACCCUCAGCCCAUCACCAA,0.24
CGCCCAACCUUUUACAAAUGGCAUUUUCUUAAUUGAAAAUCCGGGAAGCAGGUGUGAUUACUUUUUUGCUCGUAGAUAUUGUCCUAAGUUGGAAUUCUCCCACUGCCCUA,0.535
CUCUGCCCUCCCUCCCCCGAAGGUCUCUGUGGUGAUGACCGCUCUCCCCUGCCCCUCCCCGCUUCCUGACCUCUGAAGAGGUUGGGAAGUGACCAUUUGGAUGUCUGGGC,0.491
AGAGUCCUUUCUCAGACAACUGAGGGAGUGUUUGGGGUGAUAUCCCAGAGACCUGGAGUUCCAGUGACUCAUAGAUACUCAGCUGAGGUAGCCAAGAAGGUGGCAGGCAG,0.381
AAACGCACGACAGUUACCCAGAAGGUUUUAUUUCUCAGCAGAUUUGUAGAAUGAAGUAUAACGUCAGUGAAUGAGAGUCCAAGUUCUUAUCACACGAUAUUAGGUACUAA,0.524

# Series 2 — method: protein binding microarray; form: double-stranded DNA, one strand shown; medium: in vitro; concentration: not given; relative to: not given; direction: higher = stronger binding
# Target: Histone acetyltransferase KAT6A, winged helix 2, GST fusion (KAT6A, Homo sapiens, UniProt Q92794, residues 85-181)
# Setting: 8-mer, flanks averaged, mean of 2 arrays, mostly near background
# Residues (chain): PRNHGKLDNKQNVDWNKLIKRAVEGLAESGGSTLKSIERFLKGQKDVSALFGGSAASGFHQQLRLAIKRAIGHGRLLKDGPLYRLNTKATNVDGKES
Oligonucleotide,E-score
AATTTGCT,0.0695
ACCTCCTC,-0.0618
CTGACTTA,0.0956
CTGTTGTA,-0.0501
GAATGTGA,-0.0981
AAAACGCG,0.00103
ACAGAACG,-0.0386
TCTCCGCA,0.0887
CTTCCAAG,0.015
GACTTCAA,-0.228
AACAGAGT,0.0171
GAGCCGCC,0.129
AATAGTAG,0.0197
GCCAGTAC,0.00219
AGGCGATG,0.0563
CAGTCCGG,0.0771
GTATCGGA,-0.236
ATCACATG,-0.159
GGGTTCGA,0.0676
CAAAAGCA,0.043
GGTGACTA,0.0572
GACATTGA,-0.0671
CGAACCGA,0.267
TCCTATCA,-0.0313
ATTTCCCC,-0.148

# Series 3 — method: competition protein-binding microarray; form: double-stranded DNA, one strand shown; medium: in vitro; concentration: 2 µM; added: Pho4 competitor, 0.05 µM; direction: higher = stronger binding; constant ends, left off below: … GTCTTGATTCGCTTGACGCTGCTG
# Target: Centromere-binding protein 1, full length, His-tagged (CBF1, Saccharomyces cerevisiae, UniProt P17106, residues 1-351)
# Chain of UniProt P17106 (whole entry, looked up): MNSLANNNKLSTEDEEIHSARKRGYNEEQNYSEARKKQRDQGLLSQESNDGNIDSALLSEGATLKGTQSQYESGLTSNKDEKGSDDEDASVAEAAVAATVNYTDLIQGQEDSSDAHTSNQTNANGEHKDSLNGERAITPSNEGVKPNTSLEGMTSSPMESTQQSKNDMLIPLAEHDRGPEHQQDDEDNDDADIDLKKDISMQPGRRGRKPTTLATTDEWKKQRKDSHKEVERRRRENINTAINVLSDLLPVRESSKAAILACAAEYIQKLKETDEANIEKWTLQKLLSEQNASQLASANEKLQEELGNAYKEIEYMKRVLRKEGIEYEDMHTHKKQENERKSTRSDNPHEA
# Setting: whole 60-bp probe, lowest competitor level
Oligonucleotide,fluorescence intensity [a.u.]
TACATTCCATTTTTGCACGTGTTGGGGTACAGAATC,2180
AAACTTTCTGTGGAAATCGTGCCGATTAAACCATTA,78.2
GTCCTGGCACCATCAATCGTGCTTTGACCAGTATGT,75.7
CGAAGAGGTTCCTATCACCTGCATTCGGTGTTTCTA,84.8
TGGGAGGCACTGAAGTCCGTGCCGATTCCTCGACGC,60
TGCGCAACAACTTGCAATGTGGGTGTATGTCTAGAA,69.3
AAGTTCATATCCTAAAACGTGTTGACAACACTTCGG,125
AACAATCTTCATAGCAACGTGAGTCTTGTTTACCAT,117
TTCGAAATAGATTCCCAAAAAAAAAAAAAGGGATAT,103
CTTCTGTAAATTTGCCAAGTGGGTGGACGCGCCCCG,73.9
CGGGGTTAAGTTTGTCCCGTGGGTGGCTTGCAGCAG,89.5
GTAATAGGAATAGACCGTGTGATGGTTGCCGTCAGC,68.4
AAAGCGGTAATTTGCACCGTGGGTGCAGATATCTAT,86
TCTGATACGTATCACCACGTGGCCGGTACTTGTTCT,1200
AGATTTTCAAAATCGCATGTGATATAGTCGAAAGGG,447
TTGTTGAAAACGAGTCACGTGCTTTACCATTTTGCT,11500
TTTCGAGCCAGTTTGCACGTAGTACGGGCCCCCCTA,88.9
CATCCCATTGCAAGACCCACGTGAAGGAGCGTCTTC,542
CCGGCGACCTCCAAGCGCGTGCCAGGTGGGCCCCTC,65.4
CATTGGGTATACCATCACGTGTACTATCAAATAAAG,4500
TTAAGTCTATACCTTCACGTGACTCGCTAGTACCCG,6680
GAGATGATATGTTTGCTGGTGTCGCACTGCCTTTCA,61.4
GCTTAAGGGCTCGACCACGTGCGATTCGCTGCTCAA,1080
CTTCTGTAAATTTGCGCCGTGGGTGGACGCGCCCCG,80.7
ATTTTTACTTTAGTGCGCGTGGGTAGCCGAGCCTCG,65.3

# Series 4 — method: RNA Bind-n-Seq; form: RNA; medium: in vitro; concentration: not given; relative to: input RNA pool; direction: higher = stronger binding
# Target: RING finger protein unkempt homolog, zinc fingers 1-6, GST-SBP tag (UNK, Homo sapiens, UniProt Q9C0B0, residues 30-357)
# Chain of UniProt Q9C0B0 (30-357, looked up): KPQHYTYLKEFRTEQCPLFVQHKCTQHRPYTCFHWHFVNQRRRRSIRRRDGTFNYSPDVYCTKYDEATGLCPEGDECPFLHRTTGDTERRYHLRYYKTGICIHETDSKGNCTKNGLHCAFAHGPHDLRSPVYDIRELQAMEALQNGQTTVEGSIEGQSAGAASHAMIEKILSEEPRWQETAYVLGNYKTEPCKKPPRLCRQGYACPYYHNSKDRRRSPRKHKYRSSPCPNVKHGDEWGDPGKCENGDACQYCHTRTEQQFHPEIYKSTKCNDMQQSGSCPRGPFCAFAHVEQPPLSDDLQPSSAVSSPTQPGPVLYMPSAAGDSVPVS
# Setting: RNA with constant flanks, human-mouse chimeric sites, ends assumed
# Constant ends, left off below: GGGAGUUCUACAGUCCGACGAUC … CAACAGAGGAUUGAGCAUCA
Oligonucleotide,bound/input enrichment
UUUGUAUUUAUGCUAAGCACGCGUGCUGGUGGUCUUGGCAUCAAUCUUGCAACUGCUGAUGUAGUCAUUUUAUAUGACUCAGAUUGGAAUCCGCAAGUUGAUCUUCAGGCUAUGGACCGU,0.157 ratio
AUGGAGAAGGAUUCUCUGCCUCGCUUUGUGCGCUCUGAAUUUUAUAAGGAGCUAAUCAAGUAGUCAUCUGGUCAGGCUAUGAAAUCAUGCCCUGUGAGUUGAGUUACAUCCUUUGUAGCA,0.244 ratio
UAAGUCCUGUGCCAGCAAUUUAUCCCAAAAGUUUUAAAUUCUGGACCAAUUGUGUUUGUUUCCUGAUUAUUGUAUCCAAUACUUUGCCUAGUAUGUAACUCACUCUUACUGAUAAUAAAA,0.911 ratio
GCUCCUCCCCGCUCUGCAGCCUGGGGACACUGGGCUGCAUUUUUUUUCCAGCUUUCUUUUAAAACUCUCAGUGUAACUGUAUCCCGUGACAUUUCAUUUUUUUUUUAUAGUGUAUUUUUU,16.7 ratio
CCUGCUCAGAUCACCAUGAAAGUAAUCCAAGGCUUGUAUAGUGGGGUCACCACAGUGGAACUGGACACUUUGGCUGCUGAGACAGCCGCGACCUUGACCACGAAGCACCCUGACUAUGCC,0.138 ratio
CUGGCACUCUAUCAGAUAGAUUACUUUUUUAAUGUAGAUGUAAUUUUAAAAAUGAAUGGCUACUUUACACGUUUAACUAGGGUUUUACUAUAUAUGUGUACAUAUGUAUAUAUAUAUAUA,19.4 ratio
GAUAAGAAAAACUUGUUGGAGACCCGCUUGCAUGUCACUGGUAGAGACCUGAGGUGUCAAAUAGCUGAAACCUUUGGAUUUCAAGAAAAUUACAUCAAGAUCGUAAUAAAUAAGAAACAG,0.273 ratio
GGACAUCUGUCAAAUUGUAUUUCCCGUGUGAAACAAGUGAACACUCUUCAUAUACUAAUCUGCUUGUACAUCUGUAUGAUAGAGAAAUGUAAAUAUGUUAAUCCAAGCAAUGUGUCACUU,0.298 ratio
GAGCCAAGCCGGCAGUUUGUAAAGGACUCAAUUCGGCUGGUUAAAAGAUGCACCAAACCCGACAGAAAAGAAUUCCAGAAGAUUGCCAUGGCUACAGCAAUAGGAUUUGCUAUCAUGGGA,0.113 ratio
GAUCCACAGUGGUCUGAGGAGCAACUCAUUGCUGCAAAAUUUUGCUUUGCUGGCCUUGUUAUAGGGCAGACUGAAGUGGACAUCAUGAGUCAUGCCACACAGGCUAUUUUUGAAAUUCUG,0.15 ratio
GAGCGUCUUGCCCGCACUGGGAUCAUCGUGACCACUAGUGAGGCUGUUCUGCUUCAGCUGGUGGCUGACAAAGACCAUCCAAAAUUCAAGGAAAUUCAGAACCUAAUUAAGGCGAGUGCC,0.122 ratio
